Results from different studies.
Protocols differ between the studies behind these lines. ± gives the spread as reported.
Target: Albumin (ALB, Homo sapiens, UniProt P02768)

Cc1cc(C)n2c1C=C1C=CC(CCC(=O)N3CCN(CCCOc4ccc5nccc(C(=O)NCC(=O)N6CC(F)(F)C[C@H]6C#N)c5c4)CC3)=[N+]1[B-]2(F)F has an unbound fraction of 0.09.
With O=C1CCC(N2Cc3ccccc3C2=O)C(=O)N1 (stereo not shown) the fraction unbound was 0.442 (equilibrium dialysis; human serum albumin 50 mg/mL; 6 h, 37 °C).
For CN(CCCN1CCN(C(=O)CN2CCN(CC(=O)[O-])CCN(CC(=O)[O-])CCN(CC(=O)[O-])CC2)CC1)c1ccc2nccc(C(=O)NCC(=O)N3CC(F)(F)C[C@H]3C#N)c2c1.[Lu+3], the Kd was 31.1 µM (binding, fluorescence quenching).
CN(C)c1ccc2c(-c3cc(C(=O)N4CCN(CCCOc5ccc6nccc(C(=O)NCC(=O)N7CC(F)(F)C[C@H]7C#N)c6c5)CC4)ccc3C(=O)[O-])c3ccc(=[N+](C)C)cc-3oc2c1 has an unbound fraction of 0.29.
CN1CCN(c2ccc3[nH]c(-c4ccc5[nH]c(-c6ccc(OCCCCNC(=O)c7ccc8c(c7)C7(OC8=O)c8ccc(N(C)C)cc8C(C)(C)c8cc(N(C)C)ccc87)cc6)nc5c4)nc3c2)CC1 has a Kd of over 1000 µM (binding, second site, fluorescence titration; PBS).
With Nc1ccc2c(c1)CN(C1CCC(=O)NC1=O)C2=O (stereo not shown) the fraction unbound was 0.918 (equilibrium dialysis; human serum albumin 50 mg/mL; 6 h, 37 °C).
CC[C@H](C)[C@H](NC(=O)[C@H](Cc1ccccc1)NC(=O)[C@H](CCC(=O)O)NC(=O)[C@H](CCCCN)NC(=O)[C@H](C)NC(=O)[C@H](C)NC(=O)[C@H](CCC(N)=O)NC(=O)CNC(=O)[C@H](CCC(=O)O)NC(=O)[C@H](CC(C)C)NC(=O)[C@H](Cc1ccc(O)cc1)NC(=O)[C@H](CO)NC(=O)[C@H](CO)NC(=O)[C@@H](NC(=O)[C@H](CC(=O)O)NC(=O)[C@H](CO)NC(=O)[C@@H](NC(=O)[C@H](Cc1ccccc1)NC(=O)[C@@H](NC(=O)CNC(=O)[C@H](CCC(=O)O)NC(=O)[C@H](C)NC(=O)[C@@H](N)Cc1c[nH]cn1)[C@@H](C)O)[C@@H](C)O)C(C)C)C(=O)N[C@@H](C)C(=O)N[C@@H](Cc1c[nH]c2ccccc12)C(=O)N[C@@H](CC(C)C)C(=O)N[C@H](C(=O)N[C@@H](CCCCN)C(=O)NCC(=O)N[C@@H](CCCNC(=N)N)C(N)=O)C(C)C has a Kd of 180 µM (binding, SPR; pH 7.4).
CN1CCN(c2ccc3[nH]c(-c4ccc5[nH]c(-c6ccc(OCCCCNC(=O)c7ccc8c(c7)C7(OC8=O)c8ccc(N(C)C)cc8[Si](C)(C)c8cc(N(C)C)ccc87)cc6)nc5c4)nc3c2)CC1 gave a Kd of 73 ± 59 µM (binding, fluorescence titration; PBS; 1 h).
Nc1ccc2c(c1)C(=O)N(C1CCC(=O)NC1=O)C2=O (stereo not shown) has a fraction unbound of 0.839 (equilibrium dialysis; human serum albumin 50 mg/mL; 6 h, 37 °C).
Under “binding to ALB”, N#C[C@@H]1CC(F)(F)CN1C(=O)CNC(=O)c1ccnc2c(NC(=O)[C@@H](N)CCCCNC(=O)CCOCCOCCOCCOCCOCCOCCNC(=O)CN3CCN(CC(=O)[O-])CCN(CC(=O)[O-])CCN(CC(=O)[O-])CC3)cccc12.[177Lu+3] is recorded as “decreased” (ultrafiltration; human serum albumin; concentration not given, 30 min, 37 °C, with: albumin 45 mg/mL).

Excerpt of the above:
CN(C)c1ccc2c(-c3cc(C(=O)N4CCN(CCCOc5ccc6nccc(C(=O)NCC(=O)N7CC(F)(F)C[C@H]7C#N)c6c5)CC4)ccc3C(=O)[O-])c3ccc(=[N+](C)C)cc-3oc2c1 has an unbound fraction of 0.29.
CN1CCN(c2ccc3[nH]c(-c4ccc5[nH]c(-c6ccc(OCCCCNC(=O)c7ccc8c(c7)C7(OC8=O)c8ccc(N(C)C)cc8C(C)(C)c8cc(N(C)C)ccc87)cc6)nc5c4)nc3c2)CC1 has a Kd of over 1000 µM (binding, second site, fluorescence titration; PBS).
